{"data": "Measured values collected from several papers", "note": "Each numbered part is a random draw from the data of one study; scales do not carry over between parts. Substitutions count along the parent as printed."}
{"data": "Sample 1", "target": "Prothrombin, mature alpha-thrombin (F2, Homo sapiens, UniProt P00734)", "method": "aptamer microarray, sandwich", "form": "DNA with 2'F-ANA", "matrix": "in vitro", "concentration": "200 nM", "notes": "whole 15-mer aptamer, many near background", "with": "Cy3 exosite-II aptamer, 400 nM", "reading": "higher = stronger binding", "strand": "GGTTGGTGTGGTTGG"}
{"Modification": "2'F-ANA at 2 4 5 6 8 9 12 13 14 15", "mean fluorescence intensity": "49.3 a.u."}
{"Modification": "2'F-ANA at 1 4 5 6 7 8 10 13", "mean fluorescence intensity": "46.2 a.u."}
{"Modification": "2'F-ANA at 7 9 10 12", "mean fluorescence intensity": "228 a.u."}
{"Modification": "2'F-ANA at 1 2 3 4 5 11 12 14 15", "mean fluorescence intensity": "43.2 a.u."}
{"Modification": "2'F-ANA at 3 4 5 7 10 11 13 15", "mean fluorescence intensity": "47.8 a.u."}
{"Modification": "2'F-ANA at 1 5 6 8 9 10 11 12 13 15", "mean fluorescence intensity": "52.7 a.u."}
{"data": "Sample 2", "target": "Centromere-binding protein 1, full length, N-terminal tag (CBF1, Saccharomyces cerevisiae, UniProt P17106, residues 1-351)", "method": "protein-binding microarray", "form": "double-stranded DNA, one strand shown", "matrix": "in vitro", "concentration": "0.8 µM", "notes": "whole 60-bp probe, no competitor", "reading": "higher = stronger binding", "shared flanks, not repeated": "… GTCTTGATTCGCTTGACGCTGCTG", "sequence of UniProt P17106 (whole entry, looked up)": "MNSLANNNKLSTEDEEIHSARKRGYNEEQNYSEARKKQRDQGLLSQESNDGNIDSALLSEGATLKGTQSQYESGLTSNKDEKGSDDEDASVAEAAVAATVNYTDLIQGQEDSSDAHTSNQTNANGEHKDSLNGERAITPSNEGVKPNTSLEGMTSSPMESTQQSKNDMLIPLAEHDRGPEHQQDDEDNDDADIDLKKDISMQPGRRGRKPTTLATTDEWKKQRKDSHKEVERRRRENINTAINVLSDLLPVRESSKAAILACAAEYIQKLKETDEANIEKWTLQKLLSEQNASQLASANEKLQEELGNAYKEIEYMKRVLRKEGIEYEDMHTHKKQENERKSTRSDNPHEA"}
{"Strand": "GAAGAGTAAACAATCCTGATGCTGCAAATGCGTTAG", "fluorescence intensity [a.u.]": 535}
{"Strand": "CTATATGGACATAGATGCACCACGCGGTGTTTCTTC", "fluorescence intensity [a.u.]": 1100}
{"Strand": "CTACGGACGGATTATCACGCAAGTTTTTTAACGTTC", "fluorescence intensity [a.u.]": 520}
{"Strand": "CTATATTTAACAAAAAACGTGATGGTACACACATTC", "fluorescence intensity [a.u.]": 1420}
{"Strand": "CTAATTTAGGGAAGTCACGGTAACTAATGGATTTTC", "fluorescence intensity [a.u.]": 666}
{"Strand": "CTACCCTCCTGCGGGCACGCATGCGCCTTTGATTTC", "fluorescence intensity [a.u.]": 546}
{"data": "Sample 3", "target": "CCNF, cyclin fold, Cln2 fusion (human)", "method": "yeast growth competition, sequencing", "matrix": "yeast", "notes": "strong parent motif", "reference": "not given", "reading": "higher = stronger binding", "starting sequence": "RB1 docking peptide (human); PKPLKKLRFDIEG"}
{"Substitution": "L7N", "normalised enrichment score": 0.82}
{"Substitution": "K2C", "normalised enrichment score": 1.8}
{"Substitution": "P3W", "normalised enrichment score": 2.68}
{"Substitution": "E12D", "normalised enrichment score": 1.28}
{"Substitution": "K6P", "normalised enrichment score": -0.508}
{"data": "Mixed results"}
{"Molecule": "PhoQ, residues 284 288 289 292 302 303 ALVSVA", "target": "PhoP, residues 12 14 15 18 19 LYHSL (Escherichia coli, UniProt P23836)", "test": "Sort-seq, measured: YFP reporter", "system": "E. coli", "setting": "PhoQ-PhoP variant library, with: 10 µM Mg2+", "how to read": "reference: high Mg2+ state, higher = stronger signaling", "measurement": "fold induction", "value": 4.87}
{"note": "A few entries again (sample 3):"}
{"Substitution": "P3W", "normalised enrichment score": 2.68}
